{"data": "Experimental data gathered from unrelated publications", "note": "Each line is one published result; not all experiments were run side by side. ± gives the spread as reported."}
{"SMILES": "CC(C)NCCc1c[nH]c2cccc(O)c12.O=C(O)/C=C/C(=O)O", "test system": "C57BL/6J mice", "setting": "subcutaneous, 3 mg/kg", "scale": "reference: pre-session baseline", "endpoint": "body temperature change", "value": "0 ± 0.1 °C"}
{"SMILES": "C[C@]12CC[C@H]3[C@@H](CC=C4CC(O)CC[C@@]43CO)[C@@H]1CCC2O (stereo partly drawn)", "test system": "GAN diet MASH rats", "setting": "ip, 20 mg/kg, two weeks", "scale": "reference: GAN vehicle", "endpoint": "plasma ALT level", "value": "decreased"}
{"SMILES": "COc1cc(CCC[P+](c2ccccc2)(c2ccccc2)c2ccccc2)c(OC)c2c1OCO2.[I-]", "target or system": "ACHN", "test": "SRB", "endpoint": "LC50", "value": "> -4 log M"}
{"SMILES": "COc1cc(CCNCc2ccccc2OC)c(OC)cc1Br", "target or system": "5-HT2A L123V mutant, human", "test": "Gq dissociation, BRET", "scale": "reference: wild-type 5-HT2A", "endpoint": "fold loss in potency", "value": "4.4 fold"}
{"SMILES": "CC(C)(C)NCCc1c[nH]c2cccc(O)c12.CC(C)(C)NCCc1c[nH]c2cccc(O)c12.O=C(O)/C=C/C(=O)O", "test system": "C57BL/6J mice", "setting": "subcutaneous, 0.1 mg/kg", "scale": "reference: pre-session baseline", "endpoint": "body temperature change", "value": "0 ± 0.2 °C"}
{"SMILES": "Cn1c(=O)ccc2ccc(F)c(CCNC[C@H]3CN(c4cnc5c(n4)NC(=O)CO5)C(=O)O3)c21", "target or system": "Streptococcus pyogenes", "endpoint": "MIC50", "value": "0.03 mg/L"}
{"SMILES": "Cc1cn([C@H]2O[C@@H](CO[P@@](=O)(N[C@@H](C)C(=O)OC(C)C)Oc3ccccc3)[C@H](O)[C@H]2F)c(=O)[nH]c1=O", "test system": "adults with chronic hepatitis B", "setting": "25 mg, day 28", "scale": "reference: baseline", "endpoint": "change in HBV DNA", "value": "2.72 log10 IU/mL"}
{"SMILES": "CN(Cc1cnc2nc(N)nc(N)c2n1)c1ccc(C(=O)N[C@@H](CCC(=O)O)C(=O)O)cc1", "target or system": "human coronavirus OC43", "test": "virus-induced cell killing", "test system": "MRC-5", "setting": "maximum over 10 doses", "endpoint": "maximum inhibition", "value": "0%"}
{"SMILES": "Cc1cc(OCC(O)CN2CCN(c3cccc(Cl)c3)CC2)ccc1Cl (stereo not drawn)", "target or system": "Vero-E6", "test": "CellTiter-Glo ATP", "setting": "72 h, first round 5-point", "scale": "reference: DMSO 0%, hyamine -100%, more negative, more toxic", "endpoint": "maximum response", "value": "-6.69%"}
{"SMILES": "Cc1cccc(CC(=O)N2CCc3c2ccc(-c2cn(C)c4ncnc(N)c24)c3F)n1", "target or system": "human coronavirus OC43", "test": "virus-induced cell killing", "test system": "MRC-5", "setting": "screen", "endpoint": "maximum inhibition", "value": "28.7%"}
{"SMILES": "CC[C@H](C)[C@@H]1NC(=O)[C@@H]2CCCN2C(=O)[C@H](CC(C)C)NC(=O)[C@H](CC(C)C)NC(=O)CNC(=O)[C@@H](NC(=O)[C@@H](NC(=O)[C@H](CC(=O)O)NC(=O)CNC(=O)[C@@H](NC(=O)[C@H](C)NC(=O)CNC(=O)[C@H](CCCCN)NC(=O)[C@H](CC(C)C)NC(=O)[C@H](CC(C)C)NC(=O)[C@H](CCCCN)NC(=O)CNC(=O)[C@@H](NC(=O)[C@@H](N)CC(C)C)C(C)C)C(C)C)C(C)C)CSSC[C@@H](C(=O)O)NC1=O", "test": "RNA-seq, refers to: Csk mRNA", "test system": "mouse traumatic brain injury, frontal cortex and hippocampus", "setting": "dose not given", "scale": "reference: TBI plus compound vs TBI", "endpoint": "log2 fold change", "value": -0.666}
{"SMILES": "CCCNCCc1c[nH]c2cccc(O)c12.CCCNCCc1c[nH]c2cccc(O)c12.O=C(O)/C=C/C(=O)O", "test system": "C57BL/6J mice", "setting": "subcutaneous, 1 mg/kg", "scale": "reference: pre-session baseline", "endpoint": "body temperature change", "value": "-0.2 ± 0.2 °C"}
{"SMILES": "O=C(O)C[C@H](NC(=O)[C@H](CC(=O)O)NC(=O)[C@H](CC(=O)O)NC(=O)[C@H](CC(=O)O)NC(=O)[C@H](CC(=O)O)NC(=O)[C@H](CC(=O)O)NC(=O)[C@H](CC(=O)O)NC(=O)[C@H](CC(=O)O)NC(=O)[C@H](CC(=O)O)NC(=O)[C@H](CC(=O)O)NC(=O)[C@H](CC(=O)O)NC(=O)[C@H](CCCCNC(=O)c1ccc(C(=O)NCCOCCOB2BBBBBB3BBBB3B2)cc1)NC(=O)CN1CCN(CC(=O)O)CCN(CC(=O)O)CCN(CC(=O)O)CC1)C(=O)O [gallium-67 labelled]", "test system": "ddY mice, male, bone (left femur)", "setting": "intravenous, 37 kBq, 10 min", "endpoint": "tissue uptake", "value": "9.23 %ID/g"}
{"SMILES": "CC1=C(/C=C/C(C)=C/C=C/C(C)=C/C(=O)O)C(C)(C)CCC1", "target or system": "human coronavirus OC43", "test": "virus-induced cell killing", "test system": "MRC-5", "setting": "screen", "endpoint": "maximum inhibition", "value": "16%"}
{"SMILES": "Nc1ncnc2c1ncn2[C@@H]1O[C@@H]2COP(=O)(O)O[C@H]3[C@@H](O)[C@H](n4cnc5c(=O)[nH]cnc54)O[C@@H]3COP(=O)(O)O[C@H]2[C@H]1O", "target or system": "West Nile virus", "test": "RNA sequencing Reactome analysis, refers to: Interferon Signaling (R-HSA-913531)", "test system": "HFF-1", "setting": "concentration not given, upregulated pathways, added: West Nile virus infection", "scale": "reference: WNV-infected without compound", "endpoint": "fold enrichment", "value": 8.26}
{"SMILES": "CC(C)C[C@H](NC(=O)[C@H](Cc1ccccc1)NC(=O)c1cnccn1)B(O)O", "target or system": "human coronavirus OC43", "test": "virus-induced cell killing", "test system": "MRC-5", "setting": "maximum over 10 doses", "endpoint": "maximum inhibition", "value": "0%"}
{"SMILES": "COc1c(CCC[P+](c2ccccc2)(c2ccccc2)c2ccccc2)cc2c(c1OC)OCO2.[I-]", "target or system": "CAKI-1", "test": "SRB", "endpoint": "LC50", "value": "> -4 log M"}
{"SMILES": "CCCCNCCc1c[nH]c2cccc(O)c12.O=C(O)/C=C/C(=O)O", "test system": "C57BL/6J mice", "setting": "subcutaneous, 0.03 mg/kg", "scale": "reference: pre-session baseline", "endpoint": "body temperature change", "value": "-0.3 ± 0.1 °C"}
{"SMILES": "CC(=O)NC[C@H]1CN(c2ccc(N3CCOCC3)c(F)c2)C(=O)O1", "target or system": "human coronavirus OC43", "test": "virus-induced cell killing", "test system": "MRC-5", "setting": "screen", "endpoint": "maximum inhibition", "value": "12.1%"}
{"SMILES": "COc1ccc(CCNC(=O)c2cc(Nc3ccccc3)nc3ccccc23)cc1OC", "target or system": "Vero-E6", "test": "CellTiter-Glo ATP", "setting": "concentration not given, 72 h, first round 5-point", "scale": "reference: DMSO 0%, hyamine -100%, more negative, more toxic", "endpoint": "cytotoxicity efficacy", "value": "0%"}
{"SMILES": "C=CCNCCc1c[nH]c2cccc(O)c12.C=CCNCCc1c[nH]c2cccc(O)c12.O=C(O)/C=C/C(=O)O", "test system": "C57BL/6J mice", "setting": "subcutaneous, 0.03 mg/kg", "scale": "reference: pre-session baseline", "endpoint": "body temperature change", "value": "-0.2 ± 0.2 °C"}
{"SMILES": "C[C@H](C(=O)N[C@H]1COc2ccccc2[C@@H]1S(C)(=O)=O)c1ccc(F)cc1", "target or system": "KATP potassium channel, hamster", "test": "binding", "setting": "10 µM, Eurofins selectivity panel", "endpoint": "inhibition", "value": "5%"}
{"SMILES": "Cc1[nH]c(/C=C2\\C(=O)Nc3ccc(S(=O)(=O)N(C)c4cccc(Cl)c4)cc32)c(C)c1C(=O)N1CCN(C)CC1", "target or system": "human coronavirus OC43", "test": "virus-induced cell killing", "test system": "MRC-5", "setting": "screen", "endpoint": "maximum inhibition", "value": "9.76%"}
{"SMILES": "CN1CCN(S(=O)(=O)c2cc([N+](=O)[O-])ccc2N(CCOS(C)(=O)=O)CCOS(C)(=O)=O)CC1", "test system": "NSG mice, sample DB PDX", "setting": "intraperitoneal, 25 mg/kg weekly x3", "scale": "reference: treated over vehicle", "endpoint": "EFS ratio (T/C)", "value": 9.2}
{"SMILES": "CS(=O)(=O)Nc1ncn(-c2cc(F)c(COc3ccc(OS(=O)(=O)F)cc3)c(F)c2)n1", "target or system": "Mycobacterium tuberculosis", "test system": "NIH_G9R, drug-resistant, lineage 2", "endpoint": "MIC", "value": "0.03 µM"}
{"SMILES": "CC[C@H](C)[C@H](NC(=O)[C@H](C)NC(=O)[C@H](CCCCN)NC(=O)[C@H](CC(C)C)NC(=O)[C@H](C)NC(=O)[C@@H](NC(=O)[C@H](Cc1c[nH]cn1)NC(=O)[C@H](CC(C)C)NC(=O)[C@@H](NC(=O)[C@@H](NC(=O)[C@H](CCCCN)NC(=O)[C@H](C)NC(=O)[C@H](C)NC(=O)[C@H](CO)NC(=O)[C@H](CCCCN)NC(=O)[C@H](Cc1ccccc1)NC(=O)[C@@H](NC(=O)[C@H](CCCCN)NC(=O)[C@H](CC(C)C)NC(=O)[C@H](Cc1ccccc1)NC(=O)[C@H](CO)NC(=O)[C@H](CCCCN)NC(=O)[C@H](Cc1c[nH]c2ccccc12)NC(=O)[C@H](CCCCN)NC(C)=O)[C@@H](C)O)[C@@H](C)O)C(C)C)[C@@H](C)O)C(=O)N[C@@H](CO)C(=O)N[C@@H](CO)C(N)=O", "target or system": "Streptococcus pyogenes", "test system": "erythromycin-resistant", "setting": "19 strains", "endpoint": "MIC50", "value": "32 mg/L"}
{"SMILES": "[N-]=[N+]=CC(=O)OC[C@H](N)C(=O)O", "target or system": "human coronavirus OC43", "test": "virus-induced cell killing", "test system": "MRC-5", "setting": "screen", "endpoint": "maximum inhibition", "value": "6.21%"}
{"SMILES": "N.N.[Cl][Pt][Cl]", "target or system": "Cal27CisR", "test": "cell viability, MTT", "setting": "48 h", "endpoint": "IC50", "value": "63.5 µM"}
{"SMILES": "O=C(c1cc(Cc2n[nH]c(=O)c3ccccc23)ccc1F)N1CCN(C(=O)C2CC2)CC1", "target or system": "human coronavirus OC43", "test": "virus-induced cell killing", "test system": "MRC-5", "setting": "maximum over 10 doses", "endpoint": "maximum inhibition", "value": "0%"}
{"SMILES": "COc1ccc2c(c1)[C@]13CCCC[C@@H]1[C@H](C2)N(C)CC3", "target or system": "THP-1", "test": "pyroptotic LDH release", "setting": "2 µM, 40 min, added: LPS then nigericin", "endpoint": "inhibition", "value": "-19.5%"}
{"note": "Repeated from above:"}
{"SMILES": "CC(C)NCCc1c[nH]c2cccc(O)c12.O=C(O)/C=C/C(=O)O", "test system": "C57BL/6J mice", "setting": "subcutaneous, 3 mg/kg", "scale": "reference: pre-session baseline", "endpoint": "body temperature change", "value": "0 ± 0.1 °C"}
{"SMILES": "C[C@]12CC[C@H]3[C@@H](CC=C4CC(O)CC[C@@]43CO)[C@@H]1CCC2O (stereo partly drawn)", "test system": "GAN diet MASH rats", "setting": "ip, 20 mg/kg, two weeks", "scale": "reference: GAN vehicle", "endpoint": "plasma ALT level", "value": "decreased"}
